{"data": "Published values of several laboratories", "note": "Compare with care: the assays were run in different laboratories. “And” joins repeats or separate records; there may be more than shown. Numbers after ± are the reported error."}
{"Compound": "COc1ccccc1-c1n[nH]c2nc(NC3CCN(C(=O)Cc4ccc(F)cc4F)CC3)ncc12", "assay": "bead binding, competition bead pull-down, refers to: LINJ.36.0780", "test system": "Leishmania donovani extract", "setting": "10 µM", "how to read": "relative to: vehicle", "endpoint": "relative abundance", "result": 0.91}
{"Compound": "CC(C)[C@@H]1NC(=O)[C@@H]2CCCN2C(=O)[C@@H](C(C)C)NC(=O)[C@H]2CCCN2C(=O)[C@H](C(C)C)NC(=O)[C@@H]2CCCN2C(=O)[C@@H](C(C)C)NC(=O)[C@H]2CCCN2C(=O)[C@H](C(C)C)NC(=O)[C@@H]2CCCN2C(=O)[C@@H](C(C)C)NC(=O)[C@H]2CCCN2C1=O", "test system": "sheep lipid bilayer", "setting": "10 µM, pH 7.4, 23 °C, added: Cs cation", "endpoint": "transference number", "result": 0.92}
{"Compound": "O=[N+]([O-])[O-].O=c1c(C=NN=C([S-])Nc2ccccc2)coc2ccccc12.[Cu+2].c1cnc2c(c1)c1nccnc1c1cccnc12", "assay": "DNA cleavage", "test system": "supercoiled pUC19 DNA", "setting": "100 µM, 4 h, 37 °C, no reducing agent, added: DNA 40 µM", "endpoint": "supercoiled DNA form", "result": "84%"}
{"Compound": "O=C(O)c1ccc(-c2nc(-c3ccccc3Cl)c3sccn23)cc1", "test system": "C57BL/6 mice, 5-fluorouracil treated", "setting": "dose not given, day 10", "how to read": "relative to: RBC", "endpoint": "reticulocytes", "result": "19.9% and 11.1% and 17.2% and 22.1%"}
{"Compound": "CCCCCC1=C(NCC)C(=O)C(C/C=C(\\C)CCC=C(C)C)=C(O)C1=O", "assay": "GSEA of striatal RNA-Seq, refers to: HALLMARK_MYC_TARGETS_V2", "test system": "lesioned A53T mice, striatum", "setting": "dose not given", "how to read": "relative to: A53T mice, direction not given", "endpoint": "normalized enrichment score", "result": -1.68}
{"Compound": "CCCC[C@@H]1NC(=O)[C@H](Cc2ccc(O)cc2)NC(=O)[C@@H]2CCCN2C(=O)[C@H](CC(=O)O)NC(=O)[C@H](C)NC(=O)[C@H](Cc2ccccc2)NC(=O)[C@@H]2CSCCC(=O)N3CN(CN(C3)C(=O)CCSC[C@@H](C(=O)N[C@@H](C)C(N)=O)NC1=O)C(=O)CCSC[C@H](NC(C)=O)C(=O)N[C@@H](CC(C)(C)C)C(=O)N1CCC[C@H]1C(=O)N[C@@H](CCC(=O)O)C(=O)N[C@H](CCCCNC(=O)CCc1cn(CCOCCOCCOCCN(CCOCCOCCOCCC(=O)N[C@H]3CSCCC(=O)N4CN5CN(C4)C(=O)CCSC[C@H](NC(=O)[C@@H](CC(=O)O)NC(=O)[C@H](Cc4cccc6ccccc46)NC(=O)[C@@H]4CCCN4C3=O)C(=O)N[C@@H](CCSC)C(=O)N[C@@H](CCCCNC(=N)N)C(=O)N[C@@H](CC(=O)O)C(=O)N[C@@H](Cc3c[nH]c4ccccc34)C(=O)N[C@@H](CO)C(=O)N[C@@H]([C@@H](C)O)C(=O)N3CCC[C@H]3C(=O)N3C[C@H](O)C[C@H]3C(=O)N[C@@H](Cc3c[nH]c4ccccc34)C(=O)N[C@H](C(N)=O)CSCCC5=O)CCOCCOCCOCCn3cc(CCC(=O)NCCCC[C@H]4NC(=O)[C@H](CCC(=O)O)NC(=O)[C@@H]5CCCN5C(=O)[C@H](CC(C)(C)C)NC(=O)[C@@H](NC(C)=O)CSCCC(=O)N5CN6CN(C5)C(=O)CCSC[C@H](NC(=O)[C@H](Cc5ccc(O)cc5)NC(=O)[C@@H]5CCCN5C4=O)C(=O)N[C@@H](Cc4ccccc4)C(=O)N[C@@H](C)C(=O)N[C@@H](CC(=O)O)C(=O)N4CCC[C@H]4C(=O)N[C@@H](Cc4ccc(O)cc4)C(=O)N[C@@H](CCCC)C(=O)N[C@H](C(=O)N[C@@H](C)C(N)=O)CSCCC6=O)nn3)nn1)C(=O)N1CCC[C@H]1C(=O)N[C@@H](Cc1ccc(O)cc1)C(=O)N2", "assay": "NanoString, refers to: Thbd-mRNA", "test system": "mouse bearing MC38-Nectin-4 tumour, circulating white blood cells", "setting": "5 mg/kg, 24 h after dosing, unit not given", "how to read": "relative to: vehicle", "endpoint": "mRNA level", "result": 0.461}
{"Compound": "CC(C)CC1NCCc2cc(O)c(O)cc21 (stereo not drawn)", "assay": "ABTS scavenging", "setting": "10 min, dark", "endpoint": "IC50", "result": "14.1 µM"}
{"Compound": "CCN(Cc1ccccc1)C(=O)CCc1nc(CN2CCN(C(=O)Cc3ccc(OC)c(OC)c3)CC2)no1", "assay": "beam walking test", "test system": "mouse CCI model", "setting": "20 mg/kg, unit not given", "how to read": "lower is better", "endpoint": "foot slips", "result": "1 ± 0.26"}
{"Compound": "O=C1NC2(CC2)COc2ncc(F)cc2[C@H]2COCCN2c2ccn3ncc1c3n2", "test system": "Sprague-Dawley rat, male, serum", "setting": "oral, 5 mg/kg/day, end of treatment, 4-week subacute toxicity", "endpoint": "serum total bilirubin", "result": "0.9 ± 0.2 µmol/L"}
{"Compound": "CC(C)(C)C(=O)OCOP(=O)(OCOC(=O)C(C)(C)C)C1CCCN(O)C1=O (stereo not drawn)", "target or system": "SK-MEL-5", "endpoint": "log LC50", "result": "-4.92 log M"}
{"Compound": "Cc1cc(C(=O)Nc2nc3cccc(C)c3n2[C@H]2CCCCN(C(=O)/C=C/CN(C)C)C2)ccn1", "target or system": "Trypanosoma brucei", "assay": "propidium iodide flow cytometry", "test system": "bloodstream form", "setting": "concentration not given, 3 h", "endpoint": "cells in G2 phase", "result": "29.8%"}
{"Compound": "CN1CC[C@@]23c4c5ccc(O)c4C[C@@H]2[C@H](O)C=C[C@@H]3[C@@H]1C5", "assay": "warm-water tail withdrawal", "test system": "C57BL/6J mouse", "setting": "i.c.v., 30 and 100 nmol, 55 °C, added: naloxone 10 mg/kg i.p. pretreatment", "endpoint": "antinociception", "result": "inhibited"}
{"Compound": "CC(C)[C@H]1NC(=O)C[C@H]2/C=C/CCSSC[C@@H](NC1=O)C(=O)N[C@H](Cc1cccc3ccccc13)C(=O)NCC(=O)O2", "target or system": "Myosin light chain kinase 2, skeletal/cardiac muscle (MYLK2, Homo sapiens, UniProt Q9H1R3)", "assay": "enzyme activity, inhibitor", "setting": "10 µM", "endpoint": "inhibition", "result": "-1.7%"}
{"Compound": "Cc1ccc(C2=CC(C)(C)Oc3ccc(-c4ccc(-c5ccc(C(=O)O)cc5)[nH]4)cc32)cc1", "test system": "CD1 mouse, male", "setting": "20 mg/kg, 1 day after treatment, dosed for 2 weeks", "endpoint": "testis weight", "result": "0.0692 g and 0.0925 g and 0.118 g and 0.0776 g and 0.0761 g"}
{"Compound": "CN(C)[C@H]1C[C@@]23CC[C@@]4(O2)C(=CC[C@]2(C)[C@@H](c5ccc6ccncc6c5)CC[C@H]24)C=C3[C@@H](O)[C@@H]1O", "target or system": "Serine/threonine-protein kinase Nek7 (NEK7, Homo sapiens, UniProt Q8TDX7)", "assay": "ATP probe labelling, inhibitor, KiNativ profiling", "setting": "1 µM", "endpoint": "inhibition", "result": "9.7%"}
{"Compound": "CCN(CC)CCO.O=C(O)C(Cl)Cl", "target or system": "Eclipta prostrata", "setting": "15 mg/mL, 21 days, post-emergence, greenhouse", "endpoint": "herbicidal inhibition", "result": "56%"}
{"Compound": "COc1ccccc1-c1n[nH]c2nc(N[C@H]3CC[C@H](NS(=O)(=O)CC(C)C)CC3)ncc12", "assay": "bead binding, competition bead pull-down, refers to: LMJF.35.4420", "test system": "Leishmania donovani extract", "setting": "10 µM", "how to read": "relative to: vehicle", "endpoint": "relative abundance", "result": 0.96}
{"Compound": "C(=N\\Cc1cc(C/N=C/c2ccc[nH]2)cc(-c2cc(C/N=C/c3ccc[nH]3)cc(C/N=C/c3ccc[nH]3)c2)c1)/c1ccc[nH]1", "test system": "hACE2 mice, bronchoalveolar lavage fluid", "setting": "dose not given", "how to read": "relative to: control", "endpoint": "IL-18 level", "result": "decreased"}
{"Compound": "Cc1ccc(S(=O)(=O)N2CC2C(=O)N(C)C)cc1 (stereo not drawn)", "test system": "mouse, Lewis lung carcinoma", "setting": "intraperitoneal, 170 mg/kg, 16 doses, day 12", "endpoint": "tumour volume", "result": "681 mm3"}
{"Compound": "CC(C)C[C@@H]1NC(=O)[C@@H](Cc2c[nH]c3ccccc23)NC(=O)[C@H](CCCNC(=N)N)NC(=O)[C@@H](CCC(=O)O)NC(=O)[C@H](CCC(N)=O)NC(=O)[C@@H](CCC(=O)O)NC(=O)[C@H](CCCNC(=N)N)NC(=O)[C@@H](Cc2c[nH]c3ccccc23)NC1=O", "assay": "Luminex, refers to: LIX", "test system": "LDLr-/- mice, Western diet, liver", "setting": "dose not given, 4 weeks", "endpoint": "cytokine level", "result": "290 ± 240 pg/g tissue"}
{"Compound": "CC(=O)N1c2ccc(-c3ccc(CNC(=O)c4cn5cc(-c6cnc(N)nc6)nc(N6CCOCC6)c5n4)cc3)cc2CC[C@@H]1C", "test system": "mice with transplanted Eµ-Myc lymphoma", "setting": "35 mg/kg, 15 d dosing", "endpoint": "median overall survival", "result": "45 days"}
{"Compound": "CS(C)(=O)=Nc1ccc(-c2ccc(-c3nc4cc(O[C@@H]5CO[C@H]6[C@@H]5OC[C@H]6O)[nH]c4cc3F)cc2)cc1", "target or system": "Activin receptor type-1 (ACVR1, Homo sapiens, UniProt Q04771)", "assay": "enzyme activity, inhibitor", "setting": "10 µM", "endpoint": "inhibition", "result": "-18%"}
{"Compound": "CC[C@H](C)[C@H](NC(=O)[C@H](CO)NC(=O)[C@H](Cc1ccc(O)cc1)NC(=O)[C@H](Cc1ccc(O)cc1)NC(=O)[C@H](CC(N)=O)NC(=O)CNC(=O)[C@H](CO)NC(=O)[C@H](Cc1ccc(O)cc1)NC(=O)[C@H](CO)NC(=O)[C@H](CO)NC(=O)[C@H](CC(N)=O)NC(=O)COCCOCCNC(=O)CN1CCN(CC(=O)O)CCN(CC(=O)O)CCN(CC(=O)O)CC1)C(=O)N[C@@H](CC(C)C)C(N)=O [copper-64 labelled]", "assay": "dynamic PET", "test system": "mouse, tamoxifen-induced PDAC, tumor", "setting": "intravenous, 0.1 µg/mouse, 9.5 min", "endpoint": "tumour uptake", "result": "11.2 %ID/mL"}
{"Compound": "CCCCCCCCCCCC1CC(=O)NC(CC(N)=O)C(=O)NC(Cc2ccc(O)cc2)C(=O)NC(CC(N)=O)C(=O)NC(CCC(N)=O)C(=O)N2CCCC2C(=O)NC(CC(N)=O)C(=O)NC(CO)C(=O)N1 (stereo not drawn)", "assay": "calcein leakage", "test system": "DOPC/DOPG/CHOL liposomes", "setting": "concentration not given, added: 20 wt% PEG-8000", "endpoint": "fusion time constant", "result": "8 ± 2 min"}
{"note": "A few entries again:"}
{"Compound": "CC(C)(C)C(=O)OCOP(=O)(OCOC(=O)C(C)(C)C)C1CCCN(O)C1=O (stereo not drawn)", "target or system": "SK-MEL-5", "endpoint": "log LC50", "result": "-4.92 log M"}
{"Compound": "Cc1cc(C(=O)Nc2nc3cccc(C)c3n2[C@H]2CCCCN(C(=O)/C=C/CN(C)C)C2)ccn1", "target or system": "Trypanosoma brucei", "assay": "propidium iodide flow cytometry", "test system": "bloodstream form", "setting": "concentration not given, 3 h", "endpoint": "cells in G2 phase", "result": "29.8%"}
{"Compound": "CN1CC[C@@]23c4c5ccc(O)c4C[C@@H]2[C@H](O)C=C[C@@H]3[C@@H]1C5", "assay": "warm-water tail withdrawal", "test system": "C57BL/6J mouse", "setting": "i.c.v., 30 and 100 nmol, 55 °C, added: naloxone 10 mg/kg i.p. pretreatment", "endpoint": "antinociception", "result": "inhibited"}
{"Compound": "CC(C)[C@H]1NC(=O)C[C@H]2/C=C/CCSSC[C@@H](NC1=O)C(=O)N[C@H](Cc1cccc3ccccc13)C(=O)NCC(=O)O2", "target or system": "Myosin light chain kinase 2, skeletal/cardiac muscle (MYLK2, Homo sapiens, UniProt Q9H1R3)", "assay": "enzyme activity, inhibitor", "setting": "10 µM", "endpoint": "inhibition", "result": "-1.7%"}
